Results of several laboratories.
Values joined by “and” are separate records of one study, mostly repeats; a detail may differ. ± marks the error that the study gave.

SMILES	test	system	setting	scale	quantity	value
CCNCCc1c[nH]c2cccc(O)c12.CCNCCc1c[nH]c2cccc(O)c12.O=C(O)CCC(=O)O	–	C57BL/6J mice	subcutaneous, 3 mg/kg	–	head twitch response	39 ± 6.3 count/30 min
CC1(C)C(C(=O)c2cn(CCCCCF)c3ccccc23)C1(C)C	Δ9-THC discrimination substitution	C57BL/6J male mice	ip, 30 min pre-session, with: trained on 5.6 mg/kg Δ9-THC	–	ED50	3.5 µmol/kg
Cc1ncc2n1-c1ccc(Cl)cc1C(c1ccccc1F)=NC2	self-administration, progressive-ratio schedule	rhesus monkey	intravenous	–	ED50	0.007 mg/kg/injection
COC(=O)[C@H]1[C@@H](OC(=O)c2ccccc2)C[C@@H]2CC[C@H]1N2C	–	mouse, nucleus accumbens	i.p., 20 mg/kg, single injection	–	acetylcholine signal	increased
O=C(O)/C=C/C(=O)O.Oc1cccc2[nH]cc(CCNC3CCCCC3)c12	–	C57BL/6J mice	subcutaneous, 0.03 mg/kg	–	head twitch count	5.7 ± 0.6
NCC1(CC(=O)O)CCCCC1	–	mouse, formalin paw test	oral, 300 mg/kg, 45 min before formalin, late phase	direction not given	licking score	4.4
CC(C)NCCc1c[nH]c2cccc(O)c12.O=C(O)/C=C/C(=O)O	–	C57BL/6J mice	subcutaneous, 1 mg/kg, 30 min	–	distance travelled	2410 ± 227 cm
NCC1(CC(=O)O)CCCCC1	mechanical allodynia, von Frey	rat, chronic constriction injury	oral, tested 10 to 300 mg/kg	–	minimum efficacious dose	30 mg/kg
C=CCN1CC[C@]23c4c5ccc(O)c4O[C@H]2C(=O)CC[C@@]3(O)[C@H]1C5	antinociception, hot plate	male ICR-CD1 mice	subcutaneous, 5 mg/kg, 60 min	–	maximum possible effect	11.6% and 8.1% and 5.37% and 2.19% and -29.5% and 7.8%
CCCNCCc1c[nH]c2cccc(O)c12.CCCNCCc1c[nH]c2cccc(O)c12.O=C(O)/C=C/C(=O)O	–	C57BL/6J mice	subcutaneous, 1 mg/kg, 30 min	–	distance travelled	2240 ± 226 cm
NCCc1ccc(Oc2ccc(O)cc2)c(I)c1	–	TAAR1 knock-out mice	ip, 50 mg/kg, 60 min	relative to: saline	maximum body temperature change	-5.6 ± 1 °C
C[C@]12CC[C@H]3[C@@H](CC=C4CC(O)CC[C@@]43CO)[C@@H]1CCC2O (stereo partly shown)	refers to: VEGF	rat, GAN diet-induced MASH, plasma, pooled	dose not given	relative to: vehicle	fold reduction	~1.2 fold
COC(=O)[C@H]1[C@@H](OC(=O)c2ccccc2)C[C@@H]2CC[C@H]1N2C	locomotor activity, refers to: total distance traveled	C57BL/6J mice (male)	subcutaneous	–	ED50	4.75 ± 0.43 mg/kg

For quick reference, copied from above:
SMILES	test	system	setting	scale	quantity	value
C[C@]12CC[C@H]3[C@@H](CC=C4CC(O)CC[C@@]43CO)[C@@H]1CCC2O (stereo partly shown)	refers to: VEGF	rat, GAN diet-induced MASH, plasma, pooled	dose not given	relative to: vehicle	fold reduction	~1.2 fold
COC(=O)[C@H]1[C@@H](OC(=O)c2ccccc2)C[C@@H]2CC[C@H]1N2C	locomotor activity, refers to: total distance traveled	C57BL/6J mice (male)	subcutaneous	–	ED50	4.75 ± 0.43 mg/kg
